# Literature values, collected from citations in different studies.
# Compare with care: the assays were run in different laboratories. Numbers after ± are the reported error.
# lecA: PA-I galactophilic lectin (lecA, Pseudomonas aeruginosa, UniProt Q05097)
# Sequence of UniProt Q05097 (whole entry, looked up): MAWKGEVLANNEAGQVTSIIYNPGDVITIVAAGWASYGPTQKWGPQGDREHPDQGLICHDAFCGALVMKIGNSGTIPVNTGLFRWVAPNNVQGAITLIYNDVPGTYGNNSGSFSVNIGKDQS
# Sequence of UniProt Q9UUB1 (whole entry, looked up): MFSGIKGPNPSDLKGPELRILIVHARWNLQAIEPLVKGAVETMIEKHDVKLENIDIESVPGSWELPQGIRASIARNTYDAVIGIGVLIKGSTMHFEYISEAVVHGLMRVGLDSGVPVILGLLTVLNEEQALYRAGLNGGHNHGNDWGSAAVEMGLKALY
# Sequence of UniProt P9WHE9 (whole entry, looked up): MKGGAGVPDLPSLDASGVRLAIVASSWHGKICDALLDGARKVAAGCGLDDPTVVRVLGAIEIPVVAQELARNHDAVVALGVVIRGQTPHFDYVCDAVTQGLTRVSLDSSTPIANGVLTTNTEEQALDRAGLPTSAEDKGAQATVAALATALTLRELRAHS
Compound,target or system,assay,system,conditions,how to read,quantity,result
Nc1c(SC[C@H](O)[C@H](O)[C@H](O)CO)[nH]c(=O)[nH]c1=O,"ribH (Mycobacterium tuberculosis, UniProt P9WHE9)",enzyme kinetics,,"pH 7.0, added: substrate 2 fixed, 1 varied",lower = tighter substrate binding,Ks,30 ± 4 µM
OCCn1cc(CO[C@@H]2O[C@H](CO)[C@H](O)[C@H](O)[C@H]2O)nn1,lecA,ITC,,,,ΔH,-8.3 kcal/mol
C=CC(OS(=O)(=O)O)c1ccc(OC)cc1 (stereo not drawn),,"sulfonation, substrate",male rat liver,,,Km,63 µM
OC[C@H]1O[C@@H](OCc2cn([C@H]3[C@H](O)[C@@H](O)[C@H](c4cn([C@H]5[C@H](O)[C@@H](O)[C@H](n6cc([C@@H]7O[C@H](CO)[C@@H](n8cc(CO[C@@H]9O[C@H](CO)[C@H](O)[C@H](O)[C@H]9O)nn8)[C@H](O)[C@H]7O)nn6)O[C@@H]5CO)nn4)O[C@@H]3CO)nn2)[C@H](O)[C@@H](O)[C@H]1O,lecA,ITC,,,,ΔH,-11.6 kcal/mol
C=CC(=O)N1CCC[C@@H](n2nc(-c3cn(C)c4ccccc34)c3c(N)ncnc32)C1,"EGFR (Homo sapiens, UniProt P00533, L858R)",,,,,kinact/Ki,140000 ± 70000 M⁻¹ s⁻¹
CCOC(=O)C(=O)Nc1c(NC[C@H](O)[C@H](O)[C@H](O)CO)[nH]c(=O)[nH]c1=O,"6,7-dimethyl-8-ribityllumazine synthase (rib4, Schizosaccharomyces pombe, UniProt Q9UUB1)",enzyme kinetics,,pH 7.0,,kcat,0.167 s⁻¹
C=CC(=O)N1CCC[C@@H](n2nc(-c3ccc4ccccc4c3)c3c(N)ncnc32)C1,"EGFR (Homo sapiens, UniProt P00533)",,,,,kinact/Ki,210000 ± 50000 M⁻¹ s⁻¹
C=CC(O)c1ccc(OC)cc1 (stereo not drawn),,,"male rat, lung microsomes",,,Km,26 µM
O=C(CCCCCCCCCN=C=S)CC(=O)N[C@H]1CCOC1=O,Pseudomonas aeruginosa,,PAO1,concentration not given,,inhibition of elastase B production,~50%
